Published values from different studies.
Each numbered part is a random draw from the data of one study; scales do not carry over between parts.

Block 1
Target: Sal-like protein 4, full length isoform A (SALL4, Homo sapiens, UniProt Q9UJQ4, residues 1-1053)
UniProt Q9UJQ4, sequence (whole entry, looked up): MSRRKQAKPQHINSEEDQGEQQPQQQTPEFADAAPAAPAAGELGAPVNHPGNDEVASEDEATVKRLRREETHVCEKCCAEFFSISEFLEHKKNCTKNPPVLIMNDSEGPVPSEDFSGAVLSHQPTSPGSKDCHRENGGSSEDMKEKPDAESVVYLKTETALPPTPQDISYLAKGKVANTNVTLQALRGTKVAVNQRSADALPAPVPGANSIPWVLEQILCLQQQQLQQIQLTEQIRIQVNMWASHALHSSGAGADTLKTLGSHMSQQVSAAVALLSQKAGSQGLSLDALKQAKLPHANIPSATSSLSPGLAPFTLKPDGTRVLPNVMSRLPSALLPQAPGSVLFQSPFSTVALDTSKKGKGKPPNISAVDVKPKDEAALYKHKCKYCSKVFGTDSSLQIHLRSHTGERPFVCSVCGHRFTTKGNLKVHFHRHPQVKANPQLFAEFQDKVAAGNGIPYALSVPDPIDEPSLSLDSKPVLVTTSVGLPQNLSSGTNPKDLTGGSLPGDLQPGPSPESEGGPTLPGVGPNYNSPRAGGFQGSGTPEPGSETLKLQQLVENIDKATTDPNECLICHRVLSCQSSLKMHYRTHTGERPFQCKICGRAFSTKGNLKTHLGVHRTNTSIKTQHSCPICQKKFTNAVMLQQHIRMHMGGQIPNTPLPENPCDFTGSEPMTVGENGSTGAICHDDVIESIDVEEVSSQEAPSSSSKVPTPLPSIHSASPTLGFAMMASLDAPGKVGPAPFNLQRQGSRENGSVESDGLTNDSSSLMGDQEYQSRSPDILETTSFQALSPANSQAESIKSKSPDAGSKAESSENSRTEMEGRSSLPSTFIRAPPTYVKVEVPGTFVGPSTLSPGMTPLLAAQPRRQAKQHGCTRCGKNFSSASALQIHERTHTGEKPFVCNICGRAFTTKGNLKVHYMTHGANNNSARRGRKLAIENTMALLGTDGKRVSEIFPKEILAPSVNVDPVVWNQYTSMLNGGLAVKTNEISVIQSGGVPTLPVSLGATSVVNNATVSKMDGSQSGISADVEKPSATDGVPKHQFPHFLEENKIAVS
Method: universal PBM
Form: double-stranded DNA, one strand shown
Matrix: in vitro
Tested at: 600 nM
Setting: 8-mer, flanks averaged, mean of replicates
Reading: higher = stronger binding
Endpoint: E-score
GTGAAACA: 0.124
AAACGTGC: -0.136
GTGACAAA: 0.0445
ACTAGACG: 0.18
CAGTGTCC: -0.178
AGGACCCC: -0.352

Block 2
Target: Histone acetyltransferase KAT6A, winged helix 1, GST fusion (KAT6A, Homo sapiens, UniProt Q92794, residues 1-85)
Method: protein binding microarray
Form: double-stranded DNA, one strand shown
Matrix: in vitro
Tested at: not given
Setting: 8-mer, flanks averaged, mean of 2 arrays, mostly near background
Relative to: not given
Reading: higher = stronger binding
Endpoint: E-score
Construct (chain): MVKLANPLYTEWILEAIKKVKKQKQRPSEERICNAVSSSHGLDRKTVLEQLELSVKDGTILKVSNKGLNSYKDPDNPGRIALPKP
CAGCGCGG: 0.395
AGCAGGCG: -0.0143
ATACTATA: -0.00126
CGGTTGAA: 0.00901
AACTCCGA: -0.0527
AGATTCGG: -0.11

Block 3
Target: Interferon regulatory factor 7, full length, phosphomimetic (IRF7, Homo sapiens, UniProt Q92985, residues 1-503, S101K/S471D/S472D/S475D/S476D/S477D/S483D/S484D/S487D)
UniProt Q92985, sequence (whole entry, unmodified, looked up): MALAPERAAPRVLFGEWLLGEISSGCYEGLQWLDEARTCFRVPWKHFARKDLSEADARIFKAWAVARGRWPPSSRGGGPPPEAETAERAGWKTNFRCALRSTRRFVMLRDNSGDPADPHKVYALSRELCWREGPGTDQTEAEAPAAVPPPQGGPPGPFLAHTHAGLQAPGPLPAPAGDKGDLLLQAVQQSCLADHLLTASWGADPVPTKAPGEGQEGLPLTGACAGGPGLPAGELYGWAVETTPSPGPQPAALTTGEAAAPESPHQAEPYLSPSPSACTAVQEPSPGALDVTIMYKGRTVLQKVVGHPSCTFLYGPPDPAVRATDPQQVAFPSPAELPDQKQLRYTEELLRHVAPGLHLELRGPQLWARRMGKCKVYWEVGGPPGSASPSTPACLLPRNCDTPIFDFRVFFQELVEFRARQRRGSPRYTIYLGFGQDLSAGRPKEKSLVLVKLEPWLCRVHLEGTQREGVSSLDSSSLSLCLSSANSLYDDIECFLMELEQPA
Method: protein-binding microarray
Form: double-stranded DNA, one strand shown
Matrix: in vitro
Tested at: 250 nM
Setting: 60-bp whole probe
Added: salmon DNA 0.4 mg/ml
Relative to: random background probes
Reading: higher = stronger binding
Endpoint: log fluorescence
All sequences stand within: GCCTAGCAC … GTCTTGATTCGCTTGACGCTGCTG
TTAGGTTTCGGGACGGGGTTAGTGCTA: 4.81 z-score
GACGGTTTCGACTATCGTGACGTGCTA: 5.32 z-score
TTAGGTTTCGCTTTCGGTTAGTGCTAG: 14.1 z-score
TTAGGTTTCGGTCCCGGTTAGTGCTAG: 5.62 z-score
TTAGATATCGGGCATCGATTAGTGCTA: -0.105 z-score
TTAGGTATCGGCACTGGGTTAGTGCTA: -0.571 z-score

Single results of other studies
PhoQ, residues 284 288 289 292 302 303 NLCILV
fold induction (PhoP, residues 12 14 15 18 19 NHFIF (Escherichia coli, UniProt P23836); Sort-seq, measured: YFP reporter; E. coli; PhoQ-PhoP variant library, added: 10 µM Mg2+; relative to: high Mg2+ state, higher = stronger signaling): 4.17

A few entries again (block 1):
AAACGTGC: -0.136
ACTAGACG: 0.18
GTGAAACA: 0.124
